# Experimental data gathered from unrelated publications.
# Every numbered part comes from another study and shows a few of its results, in no order. Positions count from the first letter of the parent shown.

# Sample 1
# Target: ABI1, truncated, D143A, DHFR fusion (Arabidopsis thaliana)
# Technique: DHFR PCA, deep sequencing
# Matrix: yeast
# Notes: methotrexate growth selection, single substitutions
# Added: (+)-ABA 17 µM
# Reference: wild-type fitted maximum
# Direction: higher = stronger binding
# Starting sequence: PYL1, truncated, DHFR fusion (Arabidopsis thaliana); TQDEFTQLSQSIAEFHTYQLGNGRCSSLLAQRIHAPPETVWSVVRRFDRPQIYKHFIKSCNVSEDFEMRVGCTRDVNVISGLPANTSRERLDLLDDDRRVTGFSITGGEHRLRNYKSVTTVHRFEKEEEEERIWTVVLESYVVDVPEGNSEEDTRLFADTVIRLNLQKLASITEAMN
Change,relative binding score
E147H,78.5%
F15Q,16.1%
V43R,5.49%
G21Y,68.3%
P83K,4.68%
F66H,65.8%
V118H,72.3%

# Sample 2
# Target: Fragile X messenger ribonucleoprotein 1, C-terminal low-complexity region (Fmr1, Mus musculus, UniProt P35922)
# Technique: RNA Bind-n-Seq
# Molecule type: RNA
# Matrix: in vitro
# Concentration: 200 nM
# Notes: whole 134-nt RNA, ends assumed
# Added: 150 mM KCl
# Reference: input library
# Direction: higher = stronger binding
# Constant ends, left off below: GGGAGUUCUACAGUCCGACGAUC … UGGAAUUCUCGGGUGUCAAGG
Strand,log2 enrichment
AGUCCUGUGCUACACAUCGUAUGUACCGAAUCGGGCCCCGGGGCCCCGGGCCCCGGGGAAAGUAUUAUGUUACGCCGUUCGGAUCUGCAC,-0.0579
UUCCCGGAGAACUCGAGUAAAUCUAGAAGUUGCCAGGUUUCAGAACUAUUUAUUCCUUUAAUGUGCAGACGAAGGGAACGUCAUCGUUUG,0.0716
UGGAUGGACACCAUUAUCGUCGUGUGGCACGGGUUGACCUAAGGAAGAAGACAGAGACUUUCUCCACAAGAAGGGUUAAGUCUGGGCUGU,-0.115
AGUCCUGUGCUACACAUCGUAUGUACCGAAUCGGGGAAAAGGGGAAAAGGGAAAAGGAAAGUAUUAUGUUACGCCGUUCGGAUCUGCACU,-0.0919
GUCCUGUGCUACACAUCGUAUGUACCGAAUCGGGUUUGGGUUUUUUUGGGUUUUUGGGAAAGUAUUAUGUUACGCCGUUCGGAUCUGCAC,0.454
UGCUGUUAUCUGGAACUCCUACCUGUCCUGGAAGGCACAUCGGCUCUAAGCCUGCCUCACUCCAUCGUUUCCACCUUGCAGUGAUGCAGC,-1.5
UGCCUUGCAGAUACGUGGCUUUCCUGAAGCUGUUCCUGGAGACGGCGGAGAAGCACUUCAUGGUGGGCCACCGUGUCCACUACUAUGUCU,-1.34
UGGCCCUGGUGGCAUGCGGGGAGGAAGAGGUGGCCUCAUGGAUAGUGGUGGUCCCGGUGGAAUGUUCAGAGGUGGCCGUGGUGGAGACAG,0.0985
UAACUUUAGAGGAGGAUCUGAUGGAAAUGGCAGUGGACGUGGAUUUGGGGAUGGCUAUAAUGGGUAUGGAGGAGGACCUGGAGGUGGCAA,0.256
CAAGUCCUGUGCUACACAUCGUAUGUACCGAAUCGGGUUUGGGUUUUUGGGUGGGAAAGUAUUAUGUUACGCCGUUCGGAUCUGCACUUC,1.17
UGGGAGGUGGAUUUUGUUUAUUUUUUUAGCUCAUUUCCAGGGGUGGGAAUAUUUUUUUAAUAUGUGUCAUGAAUAAAGUUGUUUUUGAAA,0.219

# Sample 3
# Target: Histone acetyltransferase KAT6A, both winged helices, GST fusion (KAT6A, Homo sapiens, UniProt Q92794, residues 1-181)
# Technique: protein binding microarray
# Molecule type: double-stranded DNA, one strand shown
# Matrix: in vitro
# Concentration: not given
# Notes: 8-mer, flanks averaged, mean of 2 arrays, mostly near background
# Reference: not given
# Direction: higher = stronger binding
# Construct (chain): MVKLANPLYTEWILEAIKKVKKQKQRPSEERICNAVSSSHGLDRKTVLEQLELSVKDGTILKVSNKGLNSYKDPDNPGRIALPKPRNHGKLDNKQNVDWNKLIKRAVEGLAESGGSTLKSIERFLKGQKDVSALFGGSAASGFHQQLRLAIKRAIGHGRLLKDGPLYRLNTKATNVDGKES
Strand,E-score
ACTAGTTA,-0.079
CATCCCAA,-0.205
ATCCACCC,-0.0785
TAACCCAA,-0.193
CATTCAAC,0.00116
CCCTACGG,0.221
GAGGTACA,-0.232
AGACATTG,-0.00171
CAGCTGGG,-0.163
CCCGTGTC,0.224
GGTCACAC,-0.0143
AGATGGAT,-0.125

# Mixed results
Substance,target,assay,system,setting,scale,quantity,value
"PhoQ, residues 284 288 289 292 302 303 SLGVVW","PhoP, residues 12 14 15 18 19 STWGI (Escherichia coli, UniProt P23836)","Sort-seq, refers to: YFP reporter",E. coli,"PhoQ-PhoP variant library, added: 10 µM Mg2+","reference: high Mg2+ state, higher = stronger signaling",fold induction,9.3

# For quick reference, copied from above (sample 3):
Strand,E-score
CCCTACGG,0.221
GAGGTACA,-0.232
AGACATTG,-0.00171
